Measured values from different studies.

SMILES	host	medium	route	dose	setting	AUC(0-t)
CS(=O)(=O)n1cc2c(n1)CN([C@H]1CO[C@H](c3cc(F)ccc3F)[C@@H](N)C1)C2	male human	plasma	oral	400 mg	single dose, fasted, healthy volunteers	323 µM·h
CC(C)(/C=C(\C#N)C(=O)N1CCC[C@@H](n2nc(-c3ccc(Oc4ccccc4)cc3F)c3c(N)ncnc32)C1)N1CCN(C2COC2)CC1	human	plasma	oral	100 mg	single dose, healthy volunteers	65 ng·h/mL
CN(C)C/C=C/C(=O)Nc1cc2c(Nc3ccc(F)c(Cl)c3)ncnc2cc1O[C@H]1CCOC1	human	plasma	oral	10 mg	multiple doses, once daily, steady state, patients	55.9 ng·h/mL
Nc1ncc(-c2cnn(CCO)c2)c2scc(-c3ccc(NC(=O)Nc4cccc(F)c4)cc3)c12	human	plasma	oral	340 mg	patients	5760 ng·h/mL
CNc1nc(Nc2ccc(-n3cnc(C)n3)c(OC)c2)nc2c1CC[C@H]2c1ccc(F)cc1	human	plasma	oral	1200 mg	single dose, healthy volunteers	50100 ng·h/mL
COc1cc(C(=O)NC2CCN(C)CC2)c(F)cc1Nc1ncc(C(F)(F)F)c(Oc2cccc3c2C(=O)N(C)C3)n1	human	plasma	oral	200 mg	single dose, fed, healthy volunteers, tablet	31 µM·h
CCCCCN1C[C@H](O)[C@@H](O)[C@H](O)[C@@H]1CO	human	plasma	oral	2000 mg	single dose, fasted, healthy volunteers	101000 ng·h/mL
Cc1c(Cl)c(C)[n+]([O-])c(Cl)c1-c1noc(-c2cc(O)c(O)c([N+](=O)[O-])c2)n1	male human	plasma	oral	50 mg	single dose, fasted, healthy volunteers, tablet	5170 ng·h/mL
CNC(=O)c1ccc(-c2cnc3ncc(Cc4ccc5ncccc5c4)n3n2)cc1F	human	plasma	oral	400 mg twice daily	multiple doses, steady state, patients	22000 ng·h/mL
CS(=O)(=O)n1cc2c(n1)CN([C@H]1CO[C@H](c3cc(F)ccc3F)[C@@H](N)C1)C2	male human	plasma	oral	10 mg	single dose, fasted	9.07 µM·h
O=C(NCCN1CCCC1)c1cc(-c2ccc(CN3CCOCC3)cc2)nc2ccc(F)cc12	human	blood	oral	200 mg	single dose, whole blood	1940 ng·h/mL
CCOc1ccc(Cc2cc([C@@H]3S[C@H](CO)[C@@H](O)[C@H](O)[C@H]3O)c(OC)cc2C)cc1	male human	plasma	oral	25 mg	single dose, fasted, healthy volunteers	8480 ng·h/mL
CC[C@@H]1C(=O)N(C)c2cnc(Nc3ccc(C(=O)N[C@H]4CC[C@H](N5CCN(CC6CC6)CC5)CC4)cc3OC)nc2N1C(C)C	human	plasma	intravenous	150 mg	patients, infusion	1890 ng·h/mL
CCCCC[C@H](O)CC[C@@H]1[C@H]2Cc3cccc(OCC(=O)O)c3C[C@H]2C[C@H]1O	human	plasma	inhaled	54 µg	patients	0.84 ng·h/mL
C/C(=C\c1csc(C)n1)[C@@H]1C[C@@H]2O[C@]2(C)CCC[C@H](C)[C@H](O)[C@@H](C)C(=O)C(C)(C)[C@@H](O)CC(=O)N1	human	plasma	intravenous	70 mg	patients	2650 ng·h/mL
CC(C)(Sc1ccncc1-c1ccc(C#N)c2ccccc12)C(=O)O	male human	plasma	oral	15 mg	single dose, fasted	212 ng·h/mL
C[C@H](N)C(=O)N1C[C@H](CCCB(O)O)[C@](N)(C(=O)O)C1	human	plasma	oral	50 mg twice daily	multiple doses, patients	8120 ng·h/mL
CCCOc1ccc([C@H]2CNC(=O)N2c2ccc3[nH]cnc3c2)cc1	human	plasma	oral	1200 mg	single dose, fed	16800 ng·h/mL
CCC1=C(C)CN(C(=O)NCCc2ccc(S(=O)(=O)NC(=O)N[C@H]3CC[C@H](C)CC3)cc2)C1=O	male human	plasma	oral	4 mg	single dose	1100 ng·h/mL
O=C(c1nc2n(n1)[C@H](c1ccccc1)C[C@@H]2F)C1CC1	human	plasma	oral	25 mg	single dose, fasted, healthy volunteers	4110 ng·h/mL

Excerpt of the above:
SMILES	host	medium	route	dose	setting	AUC(0-t)
CC[C@@H]1C(=O)N(C)c2cnc(Nc3ccc(C(=O)N[C@H]4CC[C@H](N5CCN(CC6CC6)CC5)CC4)cc3OC)nc2N1C(C)C	human	plasma	intravenous	150 mg	patients, infusion	1890 ng·h/mL
CCCCC[C@H](O)CC[C@@H]1[C@H]2Cc3cccc(OCC(=O)O)c3C[C@H]2C[C@H]1O	human	plasma	inhaled	54 µg	patients	0.84 ng·h/mL
C/C(=C\c1csc(C)n1)[C@@H]1C[C@@H]2O[C@]2(C)CCC[C@H](C)[C@H](O)[C@@H](C)C(=O)C(C)(C)[C@@H](O)CC(=O)N1	human	plasma	intravenous	70 mg	patients	2650 ng·h/mL
